Results collected from several papers.
Parts stem from different laboratories: compare values within a part only.

Study 1 — method: protein-binding microarray; molecule type: double-stranded DNA, one strand shown; sample: in vitro; tested at: 250 nM; notes: 60-bp whole probe; together with: salmon DNA 0.4 mg/ml; relative to: random background probes; reading: higher = stronger binding; all sequences stand within: GCCTAGCAC … GTCTTGATTCGCTTGACGCTGCTG
Target: Interferon regulatory factor 5, full length, phosphomimetic (IRF5, Homo sapiens, UniProt Q13568-2, residues 1-514, K96S/S451D/S453D/S456D/S462D)
Sequence	log fluorescence [z-score]
TCACGTCTCCACCTGGGACTGTGCTAG	-0.398
TCCTGTGACGTTAAGGTCTCGTGCTAG	-0.487
GACGGACTGGGTTTCGGGAAGTGCTAG	2.52
TTAGGTCTCGGTCTCAGTTAGTGCTAG	0.406
TTTTTTTTTTTTTTTTGTATGTGCTAG	1.61
TATCTTATCCTATCAGTTTAGTGCTAG	1.92
TTAGGACTGGGTATGGGTTAGTGCTAG	-0.513
TTAGATATAAGACTGGATTAGTGCTAG	0.0652
GCCGGTATCGGGTATCGGGACGTGCTA	4
GACGGTCTCGGACTGGGAACGTGCTAG	-0.559
TTAGAACTGAGTCTCGACTAGTGCTAG	0.0628
CGGCTACCGCGGCTCCTACAGTGCTAG	-0.796
TGGTCTTTCTGTTTTCTCCAGTGCTAG	5.17
GTCGGTTTCGGGTATCGGGACGTGCTA	8.96
GACGATCTCAGTGTCGAGACGTGCTAG	-0.163
TTAGGTCTCCTTCTCCTCTAGTGCTAG	-0.285
TTCAGTTTCTCTTTCCTTCTGTGCTAG	5.51
TGAGGACTGGGGTATCGGTTAGTGCTA	2.22
TCAAATTTTAGTAACACACTGTGCTAG	0.487

Study 2 — method: protein binding microarray; molecule type: double-stranded DNA, one strand shown; sample: in vitro; tested at: not given; relative to: not given; reading: higher = stronger binding
Target: Histone acetyltransferase KAT6A, winged helix 1, GST fusion (KAT6A, Homo sapiens, UniProt Q92794, residues 1-85)
Notes: 8-mer, flanks averaged, mean of 2 arrays, mostly near background
Construct (chain): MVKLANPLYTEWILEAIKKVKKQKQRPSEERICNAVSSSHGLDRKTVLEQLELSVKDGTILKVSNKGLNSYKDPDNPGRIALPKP
Sequence	E-score
AGTAAAGC	0.00102
AATTATTA	-0.00701
ACGGAAAG	0.237
CTTATTCA	-0.201
AGGAATAT	-0.0671
CGTTAGCC	0.163
GAGCCCGA	0.0245
CTTAACTC	-0.241
TATGCCGA	0.257
GACACGAC	-0.023
AATACCGA	0.0864
ACCGTCAA	0.148
CACGCCCG	0.361
CGGATGCC	0.0838
CGCTGAGA	0.142
GCACGTAC	0.00802
CAGGCGGA	0.182
AATAATAG	-0.169
CACTTCCG	0.122
GTACGGAC	0.185
GGGGTCAC	0.0231
AAACCGAA	-0.0452
GTCCTGCA	-0.294

Study 3 — method: RNA Bind-n-Seq; molecule type: RNA; sample: in vitro; tested at: 20 nM; notes: 6-mer, flanks averaged, single round; together with: 150 mM KCl; relative to: input library; reading: higher = stronger binding
Target: TAR DNA-binding protein 43, full length, His tag (TARDBP, Homo sapiens, UniProt Q13148, residues 1-414)
Sequence	6-mer enrichment (R)
GACAUG	0.947
UGAAAA	0.663
UAUGAG	1.1
UGUUCA	0.603
CAGGAU	0.807
GUCCAG	0.946
ACUCCU	0.605
UUCGGA	0.762
UCCCUA	0.612
ACCGCA	0.686
ACCCGU	0.646
UCAAUU	0.595
UACGUC	0.609
CAGGUC	0.776
UAAGGG	2.02
UGGCGC	1.37
AACCAA	0.652
CUGAUG	0.791
UUAAUG	0.659
ACAAGG	1.17
AUAGGA	0.855
AUUCCC	0.574
CAUAUG	0.671
CAAAUA	0.659
AGUAUG	1.17

Study 4 — method: RNA Bind-n-Seq; molecule type: RNA; sample: in vitro; tested at: 365 nM; relative to: no-protein control; reading: higher = stronger binding
Target: RNA binding protein fox-1 homolog 2, RRM domain, GST-SBP tag (RBFOX2, Homo sapiens, UniProt O43251-10, residues 100-194)
Notes: natural RNA segment, single round, ends assumed
All sequences stand within: GGGAGUUCUACAGUCCGACGAUC … UGGAAUUCUCGGGUGCCAA
Construct (chain): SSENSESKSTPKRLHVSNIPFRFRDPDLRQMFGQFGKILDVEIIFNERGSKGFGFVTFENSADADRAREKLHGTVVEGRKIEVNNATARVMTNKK
Sequence	RBNS enrichment (R)
UAUUCAUUUGCCCCAUCACCUCUGUCUAAAGGCCCAAGUCCUAGGGCUGCCAUGGUCACAAGCACACUGAUGCUCCUUAAGAUUGUUUAUCUGGAGCCCACAUAGUGUGG	0.316
UUCCUUUAUUGUGCAUUUAUAUUUUCUGCUGAAUUCCGGUAGUUCCCUUUAAAGUCAUGUUGACUAAUGUUUUCCUCCUUGUUUGUAUUCAGAUUUCCAAAAUUUCACUC	1.86
UCAUUUUUCAUUCUCCUCCCUCAAGGUAAUUUCUGGACAGAAACUCACACGACUAUUUACAUCAAAUCAGAUAUUAACAAGUGAAUGCUUGAGUUGCCUUGUAGAGCUAC	0.583
CCUUGGGCUUUUCCUGUCCCUAGGUGCUGAGCCCCAAUCCCCCUUUCCUCCUGAGAACUCAUGUUGCUGCCCUGGUUCUUUCUACAGCUCUGGGAUUUAGGGGGAGCCAA	0.479
GGGGCAGCUAGCAUGCCAGGUUGGUCUUUAGGCACCAGAGUCUUUAACAAAAAAAUCCUCUAGUACUGUGUGGUUUUCUAUUCUUCCAGUUCACUCUCCUGACUGUUCAG	1.23
UAUCAUUGUGAAAACUCAUGUUGUAUUACUUUUUAUUAAUUGUAAUUUGGGAUACAUAUAAGUUAAUCUUAUCAAAUAAUAUUUAAAAUUGUCAAUCAAUUUUACCAAUA	0.762
UAGUCCCUUCUGUUUUAAAGGAGGCAUUUUGGAUAUUAAGCAACUUAAUUUGAAAGAACUUCUUUUGGUGGACUACCAGAGAUUAUUAUUUUGAUAGUGGUAUUUAAAAG	0.415
AUCCUCCCAUGAAAAUCAGUUCGCCUGGCCUCCAAGUCGUGAGGAAAUGGGUAUGCAAGGCUGAGAUUUCUACAGCAAUAAAGGAGACACACACUGGGCCAGAGAGGCCU	0.544

For quick reference, copied from above (study 3):
Sequence	6-mer enrichment (R)
ACCCGU	0.646
UCAAUU	0.595
UACGUC	0.609
CAGGUC	0.776
UAAGGG	2.02
UGGCGC	1.37
AACCAA	0.652
